Published values pooled from the literature.
Numbered parts are unrelated; each lists some results of a single study. Values joined by “and” are separate records of one study, mostly repeats; a detail may differ.
Chain of UniProt P42336 (whole entry, unmodified, looked up): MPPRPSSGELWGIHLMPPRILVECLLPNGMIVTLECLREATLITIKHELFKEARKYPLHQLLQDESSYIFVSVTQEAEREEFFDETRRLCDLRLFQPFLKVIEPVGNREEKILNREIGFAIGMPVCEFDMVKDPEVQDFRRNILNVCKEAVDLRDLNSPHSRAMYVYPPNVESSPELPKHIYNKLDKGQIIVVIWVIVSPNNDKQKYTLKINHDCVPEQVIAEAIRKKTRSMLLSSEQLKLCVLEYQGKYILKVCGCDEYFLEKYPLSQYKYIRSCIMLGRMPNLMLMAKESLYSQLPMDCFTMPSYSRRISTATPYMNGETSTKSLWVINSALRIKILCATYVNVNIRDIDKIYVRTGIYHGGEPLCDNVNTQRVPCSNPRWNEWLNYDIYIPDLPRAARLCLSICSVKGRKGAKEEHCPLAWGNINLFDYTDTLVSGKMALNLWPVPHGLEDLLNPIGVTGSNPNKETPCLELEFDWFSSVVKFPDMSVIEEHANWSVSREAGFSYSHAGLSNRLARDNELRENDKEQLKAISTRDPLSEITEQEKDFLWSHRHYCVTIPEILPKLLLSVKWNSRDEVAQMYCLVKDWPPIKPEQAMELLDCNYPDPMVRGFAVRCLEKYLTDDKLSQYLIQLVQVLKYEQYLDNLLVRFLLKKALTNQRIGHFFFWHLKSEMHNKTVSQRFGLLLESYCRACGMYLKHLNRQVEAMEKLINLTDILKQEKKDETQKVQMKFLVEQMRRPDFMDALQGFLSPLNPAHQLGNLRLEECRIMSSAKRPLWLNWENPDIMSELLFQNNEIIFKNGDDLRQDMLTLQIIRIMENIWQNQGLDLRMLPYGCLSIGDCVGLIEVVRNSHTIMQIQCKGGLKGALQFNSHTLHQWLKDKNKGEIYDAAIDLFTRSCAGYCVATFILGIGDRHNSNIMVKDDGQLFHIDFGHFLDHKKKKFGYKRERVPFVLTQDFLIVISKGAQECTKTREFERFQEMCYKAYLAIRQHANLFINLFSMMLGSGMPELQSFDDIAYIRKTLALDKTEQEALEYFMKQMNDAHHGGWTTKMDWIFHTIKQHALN
Chain of UniProt O43293 (whole entry, looked up): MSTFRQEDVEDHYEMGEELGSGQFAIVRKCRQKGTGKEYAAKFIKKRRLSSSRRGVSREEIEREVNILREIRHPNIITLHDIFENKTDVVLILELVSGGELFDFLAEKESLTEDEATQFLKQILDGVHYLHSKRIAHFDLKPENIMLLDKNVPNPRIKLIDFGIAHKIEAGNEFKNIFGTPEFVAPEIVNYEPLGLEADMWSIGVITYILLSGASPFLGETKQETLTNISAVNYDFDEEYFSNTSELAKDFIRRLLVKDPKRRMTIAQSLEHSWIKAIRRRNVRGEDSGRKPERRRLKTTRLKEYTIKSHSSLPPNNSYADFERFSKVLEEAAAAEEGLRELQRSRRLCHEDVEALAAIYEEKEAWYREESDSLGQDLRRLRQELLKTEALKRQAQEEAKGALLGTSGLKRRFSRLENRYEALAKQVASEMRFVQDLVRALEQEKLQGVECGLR
Chain of UniProt P10721 (whole entry, unmodified, looked up): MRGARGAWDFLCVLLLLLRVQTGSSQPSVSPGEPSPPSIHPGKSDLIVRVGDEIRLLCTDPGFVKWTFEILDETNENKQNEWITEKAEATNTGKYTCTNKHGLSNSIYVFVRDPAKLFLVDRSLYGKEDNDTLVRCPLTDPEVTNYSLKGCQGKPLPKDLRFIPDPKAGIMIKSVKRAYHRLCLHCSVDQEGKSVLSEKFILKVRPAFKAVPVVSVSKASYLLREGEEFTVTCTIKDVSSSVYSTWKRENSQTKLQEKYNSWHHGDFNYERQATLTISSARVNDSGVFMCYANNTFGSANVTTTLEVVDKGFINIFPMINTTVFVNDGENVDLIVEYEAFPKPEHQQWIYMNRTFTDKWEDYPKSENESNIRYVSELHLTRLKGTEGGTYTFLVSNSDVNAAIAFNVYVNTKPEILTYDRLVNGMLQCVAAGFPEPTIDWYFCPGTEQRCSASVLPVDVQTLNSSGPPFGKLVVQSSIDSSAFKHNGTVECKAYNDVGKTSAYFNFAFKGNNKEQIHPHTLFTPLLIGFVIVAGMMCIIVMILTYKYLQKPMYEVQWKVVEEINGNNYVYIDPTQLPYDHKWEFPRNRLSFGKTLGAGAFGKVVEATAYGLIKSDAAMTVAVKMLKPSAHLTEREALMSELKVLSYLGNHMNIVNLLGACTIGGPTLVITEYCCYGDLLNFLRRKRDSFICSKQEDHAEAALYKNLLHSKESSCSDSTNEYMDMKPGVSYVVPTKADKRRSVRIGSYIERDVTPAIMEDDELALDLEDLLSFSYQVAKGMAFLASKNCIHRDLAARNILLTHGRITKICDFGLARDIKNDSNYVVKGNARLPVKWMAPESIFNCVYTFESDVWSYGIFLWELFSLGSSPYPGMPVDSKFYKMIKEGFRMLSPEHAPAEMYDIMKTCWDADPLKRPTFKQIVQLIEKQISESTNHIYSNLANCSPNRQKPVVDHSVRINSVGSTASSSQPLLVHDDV
Chain of UniProt Q15418 (whole entry, looked up): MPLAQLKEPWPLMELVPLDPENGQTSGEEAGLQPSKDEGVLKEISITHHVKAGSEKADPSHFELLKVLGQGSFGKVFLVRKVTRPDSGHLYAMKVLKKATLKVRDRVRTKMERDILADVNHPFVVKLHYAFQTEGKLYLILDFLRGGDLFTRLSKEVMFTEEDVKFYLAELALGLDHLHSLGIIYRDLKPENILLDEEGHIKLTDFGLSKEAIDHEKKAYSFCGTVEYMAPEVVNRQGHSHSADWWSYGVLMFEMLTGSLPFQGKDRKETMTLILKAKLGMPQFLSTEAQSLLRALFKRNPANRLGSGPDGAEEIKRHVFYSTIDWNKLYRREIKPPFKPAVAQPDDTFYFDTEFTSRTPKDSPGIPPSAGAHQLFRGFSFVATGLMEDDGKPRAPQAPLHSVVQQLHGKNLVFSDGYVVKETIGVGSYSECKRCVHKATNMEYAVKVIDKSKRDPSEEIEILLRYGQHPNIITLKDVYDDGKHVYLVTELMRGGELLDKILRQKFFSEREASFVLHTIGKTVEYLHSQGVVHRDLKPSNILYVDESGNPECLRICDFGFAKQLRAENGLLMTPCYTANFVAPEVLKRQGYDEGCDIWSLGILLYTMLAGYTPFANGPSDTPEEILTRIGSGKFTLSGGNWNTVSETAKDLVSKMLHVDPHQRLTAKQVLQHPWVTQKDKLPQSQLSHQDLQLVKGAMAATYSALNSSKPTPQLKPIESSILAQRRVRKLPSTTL
Chain of UniProt Q9H2G2 (whole entry, looked up): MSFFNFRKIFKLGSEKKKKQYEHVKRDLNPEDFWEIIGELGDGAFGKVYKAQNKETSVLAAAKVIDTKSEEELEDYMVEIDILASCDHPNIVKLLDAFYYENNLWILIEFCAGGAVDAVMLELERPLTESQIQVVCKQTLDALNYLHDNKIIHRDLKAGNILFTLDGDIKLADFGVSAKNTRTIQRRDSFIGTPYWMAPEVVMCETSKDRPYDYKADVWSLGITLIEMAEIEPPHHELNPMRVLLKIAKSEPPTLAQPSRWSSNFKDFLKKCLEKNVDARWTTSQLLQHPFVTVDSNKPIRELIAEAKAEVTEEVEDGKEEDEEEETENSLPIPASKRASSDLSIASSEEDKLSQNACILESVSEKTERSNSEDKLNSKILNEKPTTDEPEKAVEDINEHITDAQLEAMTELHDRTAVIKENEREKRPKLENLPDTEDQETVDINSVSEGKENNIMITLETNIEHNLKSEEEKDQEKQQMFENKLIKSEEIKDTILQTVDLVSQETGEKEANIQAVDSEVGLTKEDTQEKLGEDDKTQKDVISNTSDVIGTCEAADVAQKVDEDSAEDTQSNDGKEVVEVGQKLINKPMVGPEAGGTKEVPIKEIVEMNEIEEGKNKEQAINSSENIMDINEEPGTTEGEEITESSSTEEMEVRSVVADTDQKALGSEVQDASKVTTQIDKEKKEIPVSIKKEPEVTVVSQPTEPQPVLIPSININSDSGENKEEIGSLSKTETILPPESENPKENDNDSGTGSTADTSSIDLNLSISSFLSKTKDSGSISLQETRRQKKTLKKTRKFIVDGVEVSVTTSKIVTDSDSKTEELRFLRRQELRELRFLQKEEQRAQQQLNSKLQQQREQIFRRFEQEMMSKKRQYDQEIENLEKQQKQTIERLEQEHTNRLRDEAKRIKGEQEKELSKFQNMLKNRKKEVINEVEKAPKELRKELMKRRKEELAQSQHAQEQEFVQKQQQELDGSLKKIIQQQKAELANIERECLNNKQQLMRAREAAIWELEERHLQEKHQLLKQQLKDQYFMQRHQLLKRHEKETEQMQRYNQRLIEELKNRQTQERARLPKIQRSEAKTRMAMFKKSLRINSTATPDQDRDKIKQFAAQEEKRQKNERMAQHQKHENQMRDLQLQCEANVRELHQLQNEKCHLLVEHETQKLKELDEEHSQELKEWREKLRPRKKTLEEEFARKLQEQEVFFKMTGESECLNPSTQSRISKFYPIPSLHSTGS
Chain of UniProt Q15759 (whole entry, looked up): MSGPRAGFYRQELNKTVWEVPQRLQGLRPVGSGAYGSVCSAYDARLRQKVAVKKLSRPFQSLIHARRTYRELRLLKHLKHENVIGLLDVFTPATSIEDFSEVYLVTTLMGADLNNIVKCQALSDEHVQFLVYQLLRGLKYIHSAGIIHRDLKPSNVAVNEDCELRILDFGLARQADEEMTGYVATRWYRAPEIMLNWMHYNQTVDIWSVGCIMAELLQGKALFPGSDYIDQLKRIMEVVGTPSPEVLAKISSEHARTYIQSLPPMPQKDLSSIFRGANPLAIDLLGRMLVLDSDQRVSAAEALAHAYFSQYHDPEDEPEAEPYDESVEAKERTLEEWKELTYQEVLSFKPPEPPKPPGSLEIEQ

Set 1
Target: Serine/threonine-protein kinase 3 (STK3, Homo sapiens, UniProt Q13188)
Read-out: enzyme activity
Mode: inhibitor
Concentration: 0.5 µM
Baseline: control
Endpoint: remaining activity
Construct (Q13188 1-491): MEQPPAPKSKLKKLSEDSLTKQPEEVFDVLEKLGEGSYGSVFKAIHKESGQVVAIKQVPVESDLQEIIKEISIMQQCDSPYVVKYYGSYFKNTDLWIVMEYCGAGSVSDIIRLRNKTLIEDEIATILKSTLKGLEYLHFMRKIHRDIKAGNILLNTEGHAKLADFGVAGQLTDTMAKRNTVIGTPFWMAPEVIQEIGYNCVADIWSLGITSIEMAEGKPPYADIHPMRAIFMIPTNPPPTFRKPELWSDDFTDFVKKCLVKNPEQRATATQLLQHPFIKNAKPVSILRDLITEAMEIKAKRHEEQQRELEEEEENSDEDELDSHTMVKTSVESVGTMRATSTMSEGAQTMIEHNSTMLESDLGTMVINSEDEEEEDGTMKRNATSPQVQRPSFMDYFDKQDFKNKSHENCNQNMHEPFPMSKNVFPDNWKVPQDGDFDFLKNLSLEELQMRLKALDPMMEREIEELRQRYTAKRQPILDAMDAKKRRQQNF
COc1cc2ncnc(N3CCN(C(=O)Nc4ccc(Oc5ccccc5)cc4)CC3)c2cc1OC: 93.3%
CC(=O)O/N=C1/C(c2c(O)[nH]c3cc(Br)ccc23)=Nc2ccccc21: 39.5%
O=C(Nc1ccc(Cl)cc1)c1ccccc1NCc1ccncc1: 94.2%
Cn1cnc2cc3c(Nc4cccc(Br)c4)ncnc3cc21: 89.9%
CN(C)CCCn1cc(C2=C(c3c[nH]c4ccccc34)C(=O)NC2=O)c2ccccc21: 44.2%
Cn1cc(/C=C2\C(=O)Nc3ccc(S(N)(=O)=O)cc32)c2ccccc21: 23.4%
O=c1cc(N2CCOCC2)oc2c1ccc1ccccc12: 99.1%
Cc1ccc(NC(=O)c2ccc(CN3CCN(C)CC3)cc2)cc1Nc1nccc(-c2cccnc2)n1: 97.9%
CCOc1cc2ncnc(Nc3cccc(Br)c3)c2cc1OCC: 99.5%
COc1cc2ncnc(Nc3ccc(OCc4ccccc4)cc3)c2cc1OC: 97.6%

Set 2
Structure (SMILES): CC(C)n1cnc(-c2ccc(F)cc2)c1-c1ncc(C(=O)Nc2ccc(N3CCN(C)CC3)cc2)[nH]1
Technique: phase 2a clinical trial
Species: idiopathic pulmonary fibrosis patients
Endpoint: patients with TEAEs
item: neoplasms (SOC); dose not given, grade 2, all drug arms; baseline: patients: 1%
item: neoplasms (SOC); dose not given, grade 5, all drug arms: 0%
item: neoplasms (SOC); 60 mg once daily, grade 1 maximum intensity: 0%
item: chest discomfort; 60 mg once daily, grade 2 maximum intensity; baseline: patients: 1%
item: neoplasms (SOC); 30 mg once daily, grade 2 maximum intensity: 0%
item: reproductive and breast disorders; 60 mg once daily, grade 2 maximum intensity: 0%
item: reproductive and breast disorders; 30 mg once daily, grade 1 maximum intensity; baseline: patients: 1%
item: neoplasms (SOC); 30 mg once daily, grade 3 maximum intensity: 0%
item: reproductive and breast disorders; dose not given, grade 2, all drug arms: 0%
item: infections and infestations; dose not given, grade 1, all drug arms; baseline: patients: 3%
item: investigations (SOC); dose not given, grade 1, all drug arms; baseline: patients: 20%
item: infections and infestations; 30 mg once daily, grade 1 maximum intensity; baseline: patients: 1%

Set 3
Cell line: A-375
Concentration: 100 µM
Time: 36 h
Endpoint: viability
C[C@H](CCC(=O)O)[C@H]1CC[C@H]2[C@@H]3[C@H](O)C[C@@H]4C[C@H](O)CC[C@]4(C)[C@H]3CC[C@]12C: 90.8%
N=C(N)N: 114%
COc1cc(C)c(/C=C/C(C)=C/C=C/C(C)=C/C(=O)O)c(C)c1C: 79.3%
CN1CCN(CCCN2c3ccccc3Sc3ccc(C(F)(F)F)cc32)CC1: -0.978%
CC(C)(Oc1ccc(C(=O)c2ccc(Cl)cc2)cc1)C(=O)O: 103%
CCCCc1nc(Cl)c(CO)n1Cc1ccc(-c2ccccc2-c2nn[nH]n2)cc1: 107% and 126%
CS(=O)(=O)Nc1ccc([N+](=O)[O-])cc1Oc1ccccc1: 98.1%
CC1=C(/C=C/C(C)=C/C=C/C(C)=C/CO)C(C)(C)CCC1: 33.6%
CC1CCc2cc(F)cc3c(=O)c(C(=O)O)cn1c23 (stereo not drawn): 87.1%
Cn1cnc2c1c(=O)[nH]c(=O)n2C: 99.3%
O=C(O)COC(=O)Cc1ccccc1Nc1c(Cl)cccc1Cl: 79.6%
COC(=O)Nc1nc2cc(C(=O)c3ccc(F)cc3)ccc2[nH]1: -1.8%

Set 4
Structure (SMILES): COc1ccc2c(c1)O[C@H](c1ccc(OC)c(OC)c1)C[C@@H]2NC(=O)C1(c2ccc3c(c2)OC(F)(F)O3)CC1
Read-out: cell-free assay
Technique: competition with immobilised ligand
Concentration: 1 µM
Endpoint: remaining binding
KIT (Homo sapiens, UniProt P10721, V559D): 100%
STK39 (Homo sapiens, UniProt Q9UEW8): 100%
MAPK11 (Homo sapiens, UniProt Q15759): 93%
PIK3CA (Homo sapiens, UniProt P42336, M1043I): 84%
Ribosomal protein S6 kinase alpha-1, C-terminal kinase domain (RPS6KA1, Homo sapiens, UniProt Q15418): 100%
EGFR (Homo sapiens, UniProt P00533, G719C): 100%
SLK (Homo sapiens, UniProt Q9H2G2): 100%
DAPK3 (Homo sapiens, UniProt O43293): 95%
BMPR2 (Homo sapiens, UniProt Q13873): 92%
MAP4K2 (Homo sapiens, UniProt Q12851): 99%
PIK3CA (Homo sapiens, UniProt P42336, H1047L): 100%
